Published values gathered from unrelated publications.
Every numbered part comes from another study and shows a few of its results, in no order. Substitutions count along the parent as printed.

Sample 1
Target: Histone acetyltransferase KAT6A, winged helix 1, GST fusion (KAT6A, Homo sapiens, UniProt Q92794, residues 1-85)
Technique: protein binding microarray
Form: double-stranded DNA, one strand shown
Sample: in vitro
Tested at: not given
Notes: 8-mer, flanks averaged, mean of 2 arrays, mostly near background
Relative to: not given
Direction: higher = stronger binding
Target sequence (chain): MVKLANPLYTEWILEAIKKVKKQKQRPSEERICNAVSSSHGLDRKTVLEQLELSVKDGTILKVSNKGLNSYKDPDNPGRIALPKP
| Oligonucleotide | E-score |
| --- | --- |
| TACTCGAA | -0.0645 |
| CTCCTCGA | -0.266 |
| AGGCCGCA | 0.0845 |
| AGACCTCG | 0.0204 |
| CTCTGTCC | 0.0125 |
| TATAAAGA | -0.0914 |
| AACGCGGC | 0.378 |
| CAACTGTG | 0.0275 |
| GTTCTCGA | -0.269 |

Sample 2
Target: Interferon regulatory factor 5, full length, phosphomimetic (IRF5, Homo sapiens, UniProt Q13568-2, residues 1-514, K96S/S451D/S453D/S456D/S462D)
Technique: protein-binding microarray
Form: double-stranded DNA, one strand shown
Sample: in vitro
Tested at: 250 nM
Notes: 60-bp whole probe
With: salmon DNA 0.4 mg/ml
Relative to: random background probes
Direction: higher = stronger binding
Shared flanks, not repeated: GCCTAGCAC … GTCTTGATTCGCTTGACGCTGCTG
| Oligonucleotide | log fluorescence [z-score] |
| --- | --- |
| GACGGTATAGGTCTCGGGACGTGCTAG | -0.259 |
| GGTTTTCTAATGTTTTTTAAAGTGCTA | 1.32 |
| TTAGGTTGCGACACTGGGTTAGTGCTA | -0.104 |
| TTCTTACTTTGGGATTCTGAGTGCTAG | 0.187 |
| TCAGTATTATTTATTGTACTGTGCTAG | 0.446 |
| TCAAATGCCCTTTTGGTACTGTGCTAG | 0.341 |

Sample 3
Target: CCND2, cyclin fold, Cln2 fusion (human)
Technique: yeast growth competition, sequencing
Sample: yeast
Notes: weak parent motif
Relative to: not given
Direction: higher = stronger binding
Starting sequence: WEE1 docking peptide (human); HKTFRKLRLFDTP
| Change | normalised enrichment score |
| --- | --- |
| H1K | 0.9 |
| L7W | -0.169 |
| F4P | 0.115 |
| F4C | 0.159 |
| T12E | 0.269 |
| L9I | 0.428 |
| D11Y | -0.18 |
| R5P | -0.352 |
| K6P | 0.118 |

Further values, each from its own experiment
| Substance | target | assay | test system | setting | how to read | measurement | result |
| --- | --- | --- | --- | --- | --- | --- | --- |
| PhoQ, residues 284 288 289 292 302 303 NLCILV | PhoP, residues 12 14 15 18 19 HLGGL (Escherichia coli, UniProt P23836) | Sort-seq, item: YFP reporter | E. coli | PhoQ-PhoP variant library, with: 10 µM Mg2+ | relative to: high Mg2+ state, higher = stronger signaling | fold induction | 19.4 |

Excerpt of the above (sample 1):
| Oligonucleotide | E-score |
| --- | --- |
| AACGCGGC | 0.378 |
| TACTCGAA | -0.0645 |
| CTCCTCGA | -0.266 |
